Measured values gathered from unrelated publications.
Each line is one published result; not all experiments were run side by side.
Organism: Staphylococcus aureus

The MIC of CC(C)C[C@@H]1NC(=O)[C@H](C)NC(=O)[C@H](NC(=O)[C@H](CO)NC(=O)[C@@H](CCCCN)NC(=O)[C@@H](CC(C)C)N(C)C(=O)[C@@H](N)Cc2ccccc2)[C@H](C)OC(=O)[C@H](CC(C)C)NC1=O is reported as over 32 µg/mL (MRSA ATCC 700698; TFA salt).
CC[C@H](C)[C@H](N)C1=N[C@H](C(=O)N[C@@H](CC(C)C)C(=O)N[C@H](CCC(=O)O)C(=O)N[C@H](C(=O)N[C@H]2CCCCNC(=O)[C@H](CC(N)=O)NC(=O)[C@@H](CC(=O)O)NC(=O)[C@H](Cc3c[nH]cn3)NC(=O)[C@@H](CC(C)C)NC(=O)[C@H]([C@@H](C)CC)NC(=O)[C@@H](CCCN)NC2=O)[C@@H](C)CC)CS1 gave an MIC of 4 µg/mL (broth microdilution; ATCC 29213, LB medium; 18 h, 37 °C, added: ZnSO4 0.3 mM).
CC[C@H](C)[C@H](NC(=O)[C@@H](Cc1ccccc1)NC)C(=O)N[C@@H](CO)C(=O)N[C@H](CCCNC(=N)N)C(=O)N[C@@H](C(=O)N[C@H](C(=O)OC[C@H](N)C(=O)N[C@H]1C(=O)N[C@@H](C)C(=O)N[C@@H](CC(C)C)C(=O)N[C@@H]([C@@H](C)CC)C(=O)O[C@H]1C)[C@@H](C)CC)[C@@H](C)CC has an MIC of 0.125 to 0.25 µg/mL (broth microdilution; ATCC 29213, MSSA, Mueller-Hinton broth; 16 h, 37 °C).
COc1c(CC=C(C)C)c(O)cc2c1[C@@H]1Oc3c(ccc(O)c3CC=C(C)C)[C@@H]1CO2 gave an MIC of 128 µg/mL.
The MIC of N=C(N)NCCC[C@@H]1NC(=O)[C@H](CCCNC(=N)N)NC(=O)[C@H](CCCNC(=N)N)NC(=O)[C@H](CCCNC(=N)N)NC(=O)[C@H](Cc2c[nH]c3ccccc23)NC(=O)[C@H](CCCNC(=N)N)NC(=O)[C@H](CCCNC(=N)N)NC(=O)[C@@H](N)CCCCn2cc(nn2)C[C@@H](C(N)=O)NC1=O is reported as 7.8 µg/mL (ATCC 25923; 18 to 24 h, no serum).
With CCCCCNS(=O)(=O)c1ccc(-n2nnc(/C(C)=N/NC(=N)N)c2C)cc1 the MIC was over 64 µg/mL (microbial growth, broth dilution; MRSA USA300; drug-resistant strain).
For CC1=C[C@@]2(C)C(=C(C)[C@H]3[C@@H]4C[C@H](C)C[C@H](C)[C@H]4[C@H]4Oc5ccc(cc5)C[C@]5(O)NC(=O)[C@]6(O[C@H]65)C(=O)[C@@H]2[C@@H]43)[C@H]1C, the MIC was 3.1 µM (microbial growth, broth dilution; ATCC700699 MRSA; drug-resistant strain).
CC(=O)N[C@@H](CCCNC(=N)N)C(=O)N[C@@H](Cc1c[nH]c2ccccc12)C(=O)N[C@@H](CCCNC(=N)N)C(=O)N[C@@H](Cc1c[nH]c2ccccc12)C(=O)N[C@@H](Cc1c[nH]c2ccccc12)C(=O)N[C@@H](CCCCN)C(=O)N[C@@H](Cc1ccccc1)C(=O)N[C@H](C(N)=O)C(C)C gave an MIC of 11.3 µM (MSSA ATCC 29213, Mueller-Hinton broth; overnight, 37 °C).
With CN1CCNC1=S.CN1CCNC1=S.O=[N+]([O-])[O-].[Ag+].c1ccc(P(c2ccccc2)c2ccccc2)cc1 the MIC was 7 µg/mL (agar dilution; methicillin-resistant; 24 h, 37 °C).
For COc1ccc2ccc3c(c2c1)C=[N+]1C2CCCCC2[N+]2=Cc4cccc(C)c4[O][Au-]21[O]3.F[P-](F)(F)(F)(F)F (stereo not shown), the MIC was 10 µM (bacterial growth, broth microdilution; vancomycin-intermediate; 24 h).
For CCCCCCCCCCCCCC(=O)N[C@H](CCN)C(=O)N[C@H](C(=O)N[C@@H](CCN)C(=O)N[C@@H](CC(C)C)C(=O)N[C@@H](CCN)C(=O)N[C@H](Cc1ccccc1)C(=O)N[C@@H](CC(C)C)C(=O)N[C@@H](CCN)C(=O)N[C@H](Cc1ccc(O)cc1)C(=O)N[C@H](C(=O)N[C@@H](CC(=O)O)C(=O)O)C(C)C)[C@@H](C)O, the MIC was 2 µg/mL (broth microdilution; BNCC 186335).
For CN1C(=O)[C@@H]2NC(=O)[C@@H]3NC(=O)[C@@H](c4ccc(O)cc4)NC(=O)[C@H](NC(=O)C(NCc4ccsc4)c4ccc(O)cc4)Cc4c[nH]c5cc(ccc45)-c4cc3cc(c4O)Oc3ccc(cc3)C[C@H]1C(=O)N[C@@H](C(=O)O)c1ccc(O)c(c1)Oc1ccc2cc1 (stereo partly shown), the MIC was 4 µg/mL (ATCC 33591 MRSA, Mueller-Hinton broth).
O=C1c2ccccc2NC(c2ccc([N+](=O)[O-])cc2)N1/N=C/c1ccc([N+](=O)[O-])cc1 (stereo not shown) gave an MIC of over 256 µg/mL (microbial growth, broth dilution; 24 h, drug-resistant strain, clinical isolate).
For CC(C)CCCCCCCCC/C=C/C(=O)N[C@@H](CC(=O)O)C(=O)N[C@H]1CNC(=O)[C@@H]2CCCN2C(=O)[C@H](Cc2ccccc2)NC(=O)[C@@H]([C@@H](C)O)NC(=O)CNC(=O)[C@H](CC(=O)O)NC(=O)CNC(=O)[C@H](CC(=O)O)NC(=O)CNC(=O)[C@H]2CCCCN2C1=O, the MIC was 16 µg/mL (MRSA USA300; added: Ca2+ 1 mM).
For CC(C)[C@H](NC(=O)[C@H](CCCCN)NC(=O)[C@H](CCCNC(=N)N)NC(=O)CNC(=O)[C@H](C)NC(=O)[C@H](CC(N)=O)NC(=O)[C@H](CCCNC(=N)N)NC(=O)[C@@H](NC(=O)[C@H](CCCCN)NC(=O)[C@H](CC(=O)O)NC(=O)[C@@H](NC(=O)[C@@H](NC(=O)[C@H](CCCNC(=N)N)NC(=O)[C@H](CCCNC(=N)N)NC(=O)[C@H](Cc1c[nH]c2ccccc12)NC(=O)[C@H](Cc1c[nH]c2ccccc12)NC(=O)CN)[C@@H](C)O)C(C)C)C(C)C)C(=O)O, the MIC was over 256 µg/mL (bacterial growth; ATCC 25923; 18 h).
CCCCCCCCCCN1C(=O)/C(=N\NC(=N)N)c2cc(C)ccc21 gave an MIC of 3 µg/mL (broth microdilution; BAA41 MRSA; 18 h, 37 °C).
For CC[C@H](C)[C@H](NC(=O)[C@H](CCCN)NC(=O)[C@H](CC(N)=O)NC(=O)[C@H](Cc1c[nH]c2ccccc12)NC(=O)[C@H](Cc1ccccc1)NC(=O)[C@H](CCCN)NC(=O)[C@H](CCCCNC(=N)N)NC(=O)[C@H](CC(C)C)NC(=O)[C@H](Cc1c[nH]c2ccccc12)NC(=O)[C@H](CCCN)NC(=O)[C@H](CCCCNC(=N)N)NC(=O)[C@H](CC(C)C)NC(=O)CNC(C)=O)C(=O)N[C@@H](CCCN)C(=O)N[C@@H](CCCCNC(=N)N)C(N)=O, the MIC was 3.12 µM (broth microdilution; multidrug-resistant).
With CC(=O)N[C@@H](Cc1c[nH]c2ccccc12)C(=O)NCCCCCCCCCCCC(=O)NCCCC[C@@H]1NC(=O)[C@H](CCCNC(=N)N)NC(=O)[C@H](CCCNC(=N)N)NC(=O)[C@H](CCCNC(=N)N)NC(=O)[C@H](CCCNC(=N)N)NC(=O)[C@H](CCCNC(=N)N)NC1=O the MIC was 83.4 µg/mL (broth microdilution; MRSA ATCC 43300; 37 °C).
CCO[C@H]1[C@H](O)[C@@H](N)[C@@H](O[C@H]2[C@H](O[C@@H]3O[C@H](CO)[C@@H](O[C@H]4O[C@@H](CN)[C@@H](O)[C@H](O)[C@H]4N)[C@H]3O)[C@@H](O)[C@H](N)C[C@@H]2N)O[C@@H]1CO gave an MIC of 8 to 16 µg/mL (broth microdilution; MRSA isolate AG 044).

A few entries again:
With CCCCCNS(=O)(=O)c1ccc(-n2nnc(/C(C)=N/NC(=N)N)c2C)cc1 the MIC was over 64 µg/mL (microbial growth, broth dilution; MRSA USA300; drug-resistant strain).
For CC1=C[C@@]2(C)C(=C(C)[C@H]3[C@@H]4C[C@H](C)C[C@H](C)[C@H]4[C@H]4Oc5ccc(cc5)C[C@]5(O)NC(=O)[C@]6(O[C@H]65)C(=O)[C@@H]2[C@@H]43)[C@H]1C, the MIC was 3.1 µM (microbial growth, broth dilution; ATCC700699 MRSA; drug-resistant strain).
The MIC of CC(C)C[C@@H]1NC(=O)[C@H](C)NC(=O)[C@H](NC(=O)[C@H](CO)NC(=O)[C@@H](CCCCN)NC(=O)[C@@H](CC(C)C)N(C)C(=O)[C@@H](N)Cc2ccccc2)[C@H](C)OC(=O)[C@H](CC(C)C)NC1=O is reported as over 32 µg/mL (MRSA ATCC 700698; TFA salt).
